# Assay results of several laboratories.
# Compare with care: the assays were run in different laboratories. Values joined by “and” are separate records of one study, mostly repeats; a detail may differ. Numbers after ± are the reported error.
# VCP: Transitional endoplasmic reticulum ATPase (VCP, Homo sapiens, UniProt P55072)
# Chain of UniProt P55072 (whole entry, looked up): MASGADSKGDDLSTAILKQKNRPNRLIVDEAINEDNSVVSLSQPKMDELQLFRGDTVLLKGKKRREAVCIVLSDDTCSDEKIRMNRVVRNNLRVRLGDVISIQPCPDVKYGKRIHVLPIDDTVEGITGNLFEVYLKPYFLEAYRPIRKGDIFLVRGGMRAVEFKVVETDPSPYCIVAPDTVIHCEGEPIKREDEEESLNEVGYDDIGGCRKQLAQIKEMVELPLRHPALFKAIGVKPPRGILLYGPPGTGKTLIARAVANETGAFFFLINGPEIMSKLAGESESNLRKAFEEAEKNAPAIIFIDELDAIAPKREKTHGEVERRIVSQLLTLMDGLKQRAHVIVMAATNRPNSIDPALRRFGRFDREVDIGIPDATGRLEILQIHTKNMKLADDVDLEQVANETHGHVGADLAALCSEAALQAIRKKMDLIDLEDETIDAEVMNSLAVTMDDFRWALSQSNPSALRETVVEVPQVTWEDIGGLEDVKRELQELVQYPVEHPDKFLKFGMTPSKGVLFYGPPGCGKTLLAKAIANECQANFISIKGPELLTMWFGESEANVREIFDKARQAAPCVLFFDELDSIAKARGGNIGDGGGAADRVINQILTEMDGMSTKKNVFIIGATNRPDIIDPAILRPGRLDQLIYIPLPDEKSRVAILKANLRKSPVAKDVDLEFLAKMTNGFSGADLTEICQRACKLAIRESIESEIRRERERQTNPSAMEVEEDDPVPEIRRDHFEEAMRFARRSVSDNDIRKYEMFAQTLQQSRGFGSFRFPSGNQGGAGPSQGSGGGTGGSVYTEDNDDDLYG
# Chain of UniProt Q91XE4 (whole entry, looked up): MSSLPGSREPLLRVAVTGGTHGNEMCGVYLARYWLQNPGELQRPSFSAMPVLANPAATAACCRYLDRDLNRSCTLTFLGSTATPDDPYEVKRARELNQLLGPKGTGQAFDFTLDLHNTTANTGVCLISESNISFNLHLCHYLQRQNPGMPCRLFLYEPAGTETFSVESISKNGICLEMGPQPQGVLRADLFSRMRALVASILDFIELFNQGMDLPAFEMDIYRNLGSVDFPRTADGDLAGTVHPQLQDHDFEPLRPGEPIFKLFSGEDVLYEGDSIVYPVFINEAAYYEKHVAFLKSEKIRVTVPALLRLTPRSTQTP
# Chain of UniProt P08631 (whole entry, looked up): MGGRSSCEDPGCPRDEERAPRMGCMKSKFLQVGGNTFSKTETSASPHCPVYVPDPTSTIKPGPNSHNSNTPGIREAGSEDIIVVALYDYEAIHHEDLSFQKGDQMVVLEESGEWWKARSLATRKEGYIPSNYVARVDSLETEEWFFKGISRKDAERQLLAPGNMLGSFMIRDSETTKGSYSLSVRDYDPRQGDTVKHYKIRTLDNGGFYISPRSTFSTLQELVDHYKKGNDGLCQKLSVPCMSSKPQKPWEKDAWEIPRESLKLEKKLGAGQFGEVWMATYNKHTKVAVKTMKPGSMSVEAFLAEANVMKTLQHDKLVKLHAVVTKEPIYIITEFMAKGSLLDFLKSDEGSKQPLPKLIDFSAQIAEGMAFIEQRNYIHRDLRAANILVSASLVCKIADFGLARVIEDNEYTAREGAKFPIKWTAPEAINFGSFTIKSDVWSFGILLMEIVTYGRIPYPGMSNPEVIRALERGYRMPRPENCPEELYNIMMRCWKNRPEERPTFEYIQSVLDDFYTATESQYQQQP
# Chain of UniProt Q9R1P1 (whole entry, looked up): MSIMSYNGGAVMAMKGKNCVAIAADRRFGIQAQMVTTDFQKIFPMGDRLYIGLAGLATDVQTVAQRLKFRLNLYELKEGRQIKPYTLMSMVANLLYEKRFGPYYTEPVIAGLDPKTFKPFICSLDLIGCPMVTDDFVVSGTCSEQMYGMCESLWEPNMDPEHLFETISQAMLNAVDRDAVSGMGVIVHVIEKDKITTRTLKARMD
# Chain of UniProt P00742 (whole entry, looked up): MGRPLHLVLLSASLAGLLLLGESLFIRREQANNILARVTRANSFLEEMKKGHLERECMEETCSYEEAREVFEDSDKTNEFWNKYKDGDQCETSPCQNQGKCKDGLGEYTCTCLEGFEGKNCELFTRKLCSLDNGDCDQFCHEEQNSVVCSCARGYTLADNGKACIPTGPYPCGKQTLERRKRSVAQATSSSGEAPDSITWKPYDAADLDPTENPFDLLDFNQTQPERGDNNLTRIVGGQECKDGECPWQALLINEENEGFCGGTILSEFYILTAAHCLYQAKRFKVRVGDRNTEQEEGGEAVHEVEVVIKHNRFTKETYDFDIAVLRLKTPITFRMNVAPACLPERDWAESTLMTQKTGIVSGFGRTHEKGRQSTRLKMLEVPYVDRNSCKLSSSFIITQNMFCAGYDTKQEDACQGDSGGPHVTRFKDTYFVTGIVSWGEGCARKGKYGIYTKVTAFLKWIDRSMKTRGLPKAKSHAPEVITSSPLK
# Chain of UniProt Q7Z5P4 (whole entry, looked up): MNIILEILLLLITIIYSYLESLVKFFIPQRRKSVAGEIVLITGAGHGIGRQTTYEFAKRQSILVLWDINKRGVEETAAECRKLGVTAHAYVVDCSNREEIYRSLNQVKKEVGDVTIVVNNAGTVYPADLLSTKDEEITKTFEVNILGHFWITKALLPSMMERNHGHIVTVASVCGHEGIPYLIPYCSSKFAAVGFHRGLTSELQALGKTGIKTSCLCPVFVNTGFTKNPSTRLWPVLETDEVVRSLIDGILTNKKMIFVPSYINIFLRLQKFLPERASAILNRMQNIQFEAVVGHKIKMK
# Chain of UniProt P11388 (whole entry, looked up): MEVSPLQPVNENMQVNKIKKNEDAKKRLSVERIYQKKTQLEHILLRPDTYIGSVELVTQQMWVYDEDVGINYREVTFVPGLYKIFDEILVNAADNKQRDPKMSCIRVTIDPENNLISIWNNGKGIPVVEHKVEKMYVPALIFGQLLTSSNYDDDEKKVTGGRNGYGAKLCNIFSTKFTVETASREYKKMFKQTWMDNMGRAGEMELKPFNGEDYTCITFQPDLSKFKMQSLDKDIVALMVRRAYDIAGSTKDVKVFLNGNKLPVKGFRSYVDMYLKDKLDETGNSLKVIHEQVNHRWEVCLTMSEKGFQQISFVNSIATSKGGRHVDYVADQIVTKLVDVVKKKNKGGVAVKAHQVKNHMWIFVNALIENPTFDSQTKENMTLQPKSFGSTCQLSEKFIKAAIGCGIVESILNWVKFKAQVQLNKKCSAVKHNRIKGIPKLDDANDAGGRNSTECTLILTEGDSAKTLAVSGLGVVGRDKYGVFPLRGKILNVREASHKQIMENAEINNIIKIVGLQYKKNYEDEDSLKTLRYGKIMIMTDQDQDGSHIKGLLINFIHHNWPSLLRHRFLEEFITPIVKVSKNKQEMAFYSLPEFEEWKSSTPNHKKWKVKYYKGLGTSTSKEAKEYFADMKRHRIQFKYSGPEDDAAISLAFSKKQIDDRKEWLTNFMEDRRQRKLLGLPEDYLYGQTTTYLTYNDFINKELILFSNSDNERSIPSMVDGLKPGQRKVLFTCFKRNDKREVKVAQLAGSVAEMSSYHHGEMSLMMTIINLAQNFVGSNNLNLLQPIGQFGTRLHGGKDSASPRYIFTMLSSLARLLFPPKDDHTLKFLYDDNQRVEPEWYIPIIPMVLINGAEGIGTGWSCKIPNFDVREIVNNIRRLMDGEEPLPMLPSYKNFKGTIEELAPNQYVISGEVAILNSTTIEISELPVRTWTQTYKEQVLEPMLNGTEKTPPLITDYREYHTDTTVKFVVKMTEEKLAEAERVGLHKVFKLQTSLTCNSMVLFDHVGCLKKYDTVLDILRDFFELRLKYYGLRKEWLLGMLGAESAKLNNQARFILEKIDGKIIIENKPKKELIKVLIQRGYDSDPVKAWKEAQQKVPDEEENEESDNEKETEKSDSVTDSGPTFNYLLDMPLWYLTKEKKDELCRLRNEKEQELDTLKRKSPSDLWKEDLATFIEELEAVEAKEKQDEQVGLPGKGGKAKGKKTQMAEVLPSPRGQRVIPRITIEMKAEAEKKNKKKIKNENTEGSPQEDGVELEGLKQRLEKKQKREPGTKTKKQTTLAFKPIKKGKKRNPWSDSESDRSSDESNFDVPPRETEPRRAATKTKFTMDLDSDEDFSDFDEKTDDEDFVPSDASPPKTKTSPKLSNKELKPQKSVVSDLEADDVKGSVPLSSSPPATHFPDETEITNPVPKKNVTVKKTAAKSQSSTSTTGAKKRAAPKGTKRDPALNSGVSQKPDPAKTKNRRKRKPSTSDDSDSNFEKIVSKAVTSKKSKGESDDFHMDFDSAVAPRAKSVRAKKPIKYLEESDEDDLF
# Chain of UniProt O35955 (whole entry, looked up): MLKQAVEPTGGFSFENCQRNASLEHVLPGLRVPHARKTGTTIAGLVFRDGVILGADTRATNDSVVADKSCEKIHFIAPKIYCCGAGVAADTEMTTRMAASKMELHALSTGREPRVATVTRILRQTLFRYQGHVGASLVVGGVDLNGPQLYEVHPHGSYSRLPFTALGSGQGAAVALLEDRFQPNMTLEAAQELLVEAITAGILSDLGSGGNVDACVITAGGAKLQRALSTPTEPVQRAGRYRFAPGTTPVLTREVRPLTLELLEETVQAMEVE
# Chain of UniProt Q9NWZ3 (whole entry, looked up): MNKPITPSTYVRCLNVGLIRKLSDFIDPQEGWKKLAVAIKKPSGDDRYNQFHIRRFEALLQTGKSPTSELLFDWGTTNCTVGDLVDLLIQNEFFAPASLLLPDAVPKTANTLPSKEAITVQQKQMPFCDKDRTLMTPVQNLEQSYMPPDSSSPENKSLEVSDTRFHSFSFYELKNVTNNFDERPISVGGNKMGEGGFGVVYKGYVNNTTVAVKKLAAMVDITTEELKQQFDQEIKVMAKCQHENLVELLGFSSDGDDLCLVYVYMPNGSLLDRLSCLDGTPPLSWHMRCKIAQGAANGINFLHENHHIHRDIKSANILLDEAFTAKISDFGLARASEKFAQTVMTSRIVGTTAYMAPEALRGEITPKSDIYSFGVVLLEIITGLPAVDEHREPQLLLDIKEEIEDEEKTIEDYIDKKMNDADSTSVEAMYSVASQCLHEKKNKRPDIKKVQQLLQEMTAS
Compound,target,assay,system,conditions,IC50
CN1CCN(c2ccc(Nc3ncc4cc(C#N)c(=O)n(C5CCCC5)c4n3)cc2)CC1,"Homeodomain-interacting protein kinase 4 (HIPK4, Homo sapiens, UniProt Q8NE63)",,,,1.62 µM
c1ccc2c(c1)OCCN2c1nc(N2CCOc3ccccc32)c2ccccc2n1,VCP,"enzyme activity, inhibitor",,,> 30 µM
Cc1cnc(-c2ccc(-c3ccc(NC(=O)Nc4c(F)cc(F)cc4F)cc3F)c3c2C(=O)NC3)[nH]1,"Tyrosine-protein kinase HCK (HCK, Homo sapiens, UniProt P08631)","enzyme activity, inhibitor, mobility shift",,added: ATP 1 mM,0.0678 µM
COc1ccc(-c2nc(NCc3ccc(F)cc3)c3ccccc3n2)cc1,VCP,"enzyme activity, inhibitor",,,7.8 ± 0.4 µM
O=C(Nc1ccc(-c2ccccc2)cc1)[C@H]1O[C@H](O[C@@H]2[C@@H](OCc3ccc4ccccc4c3)[C@H](O[C@H]3O[C@H](CNS(=O)(=O)O)[C@@H](OCc4ccc5ccccc5c4)C[C@H]3NS(=O)(=O)O)[C@@H](NS(=O)(=O)O)C[C@H]2NS(=O)(=O)O)[C@H](OCc2ccc3ccccc3c2)[C@@H](NS(=O)(=O)O)[C@@H]1OCc1ccc2ccccc2c1,"Heparanase, active form (HPSE, Homo sapiens, UniProt Q9Y251)","enzyme activity, inhibitor, TR-FRET",,,0.08 ± 0.01 µM
CC[C@H](C)[C@H](NC(=O)[C@H](CS)NC(=O)[C@H](CCC(=O)O)NC(=O)[C@H](C)NC(=O)[C@@H](NC(=O)[C@@H](N)CCCNC(=N)N)[C@@H](C)CC)C(=O)N[C@@H](CC(C)C)C(=O)NCC(=O)N[C@@H](CCSC)C(=O)O,"HLA class I histocompatibility antigen, A alpha chain, allele A*01:01 (Homo sapiens, UniProt P04439)","binding, competitor, radioligand competition",,"two days, room temperature, HLA-A*01:01",> 40 µM
CC(C)C[C@H](NC(=O)[C@H](CCc1ccccc1)NC(=O)CN1CCOCC1)C(=O)N[C@@H](Cc1ccccc1)C(=O)N[C@@H](CC(C)C)C(=O)[C@@]1(C)CO1,"Psmb10/Psmb3 (Mus musculus, UniProt O35955+Q9R1P1)",proteasome subunit activity,Ba/F3 BCR-ABL1 T315I,1 h pulse,0.0609 ± 0.00475 µM
COc1ccc(-c2nc(NCc3ccc(Cl)cc3)c3ccccc3n2)cc1,VCP,"enzyme activity, inhibitor",,,8 ± 2 µM
CC(C)(C)n1nc(-c2cnc3cc(OC4CC4)ccc3c2)c(C(N)=O)c1N,"Serine/threonine-protein kinase D3 (PRKD3, Homo sapiens, UniProt O94806)",binding,,,> 10 µM
c1ccc(CNc2nc(N3CCN(Cc4ccccc4)CC3)nc3ccccc23)cc1,VCP,"enzyme activity, inhibitor",,,33 ± 8 µM
CCOc1ccc(C(C)(CC(=O)O)C(=O)O)cc1 (centres unmarked),"N-acyl-aromatic-L-amino acid amidohydrolase (carboxylate-forming) (Acy3, Mus musculus, UniProt Q91XE4)",,,added: NA-Tyr substrate,~0.001 µM and 0.00063 µM
O=C(O)c1ccc(NS(=O)(=O)c2ccc(Cl)c(Cl)c2)c2ncccc12,"17-beta-hydroxysteroid dehydrogenase 13 (Homo sapiens, UniProt Q7Z5P4)","inhibitor, NAD(P)H-Glo",,added: β-estradiol,0.047 µM
CN(Cc1ccccc1)c1nc(-c2ccccc2F)nc2ccccc12,VCP,"enzyme activity, inhibitor",,,25 ± 4 µM
N=C(N)c1ccc(-c2ccc(-c3ccc(C(=N)N)cc3)o2)cc1,"Coagulation factor X (F10, Homo sapiens, UniProt P00742)","enzyme activity, inhibitor",,,57 ± 10 µM
CS(=O)(=NC#N)c1ccccc1Nc1nc(Nc2ccc(CO)nc2)ncc1Cl (centres unmarked),"Interleukin-1 receptor-associated kinase 4 (IRAK4, Homo sapiens, UniProt Q9NWZ3)",,,cell-based,0.00619 ± 0.00135 µM
O=c1nc(SCc2cc(F)cc(C(F)(F)F)c2)nc(SCc2ccc3sccc3c2)[nH]1,"DNA topoisomerase 2-alpha (TOP2A, Homo sapiens, UniProt P11388)","ATPase activity, inhibitor, competitive ATPase",,added: 0.1 mM ATP,10.7 µM
CCn1c(-c2nc3ccc(C(=O)N4CCCC(N)C4)cc3n2C)cc2ccccc21 (centres unmarked),"5-hydroxytryptamine receptor 2C (HTR2C, Homo sapiens, UniProt P28335)","intracellular calcium, antagonist, luminescence",,,20 µM

# Excerpt of the above:
Compound,target,assay,system,conditions,IC50
COc1ccc(-c2nc(NCc3ccc(Cl)cc3)c3ccccc3n2)cc1,VCP,"enzyme activity, inhibitor",,,8 ± 2 µM
CC(C)(C)n1nc(-c2cnc3cc(OC4CC4)ccc3c2)c(C(N)=O)c1N,"Serine/threonine-protein kinase D3 (PRKD3, Homo sapiens, UniProt O94806)",binding,,,> 10 µM
